{"data": "Measured values pooled from the literature", "note": "Numbered parts are unrelated; each lists some results of a single study. Changes are numbered by the printed parent chain."}
{"data": "Series 1", "target": "CCNB2, cyclin fold, Cln2 fusion (human)", "method": "yeast growth competition, sequencing", "sample": "yeast", "setting": "weak parent motif", "reference": "not given", "direction": "higher = stronger binding", "starting sequence": "WEE1 docking peptide (human); HKTFRKLRLFDTP"}
{"Substitution": "L7Q", "normalised enrichment score": 0.967}
{"Substitution": "T12Y", "normalised enrichment score": 0.0994}
{"Substitution": "F10S", "normalised enrichment score": -0.0533}
{"Substitution": "P13R", "normalised enrichment score": 0.369}
{"Substitution": "K6C", "normalised enrichment score": 0.109}
{"Substitution": "R5K L9F", "normalised enrichment score": -0.404}
{"Substitution": "R8F", "normalised enrichment score": -0.341}
{"Substitution": "T12M", "normalised enrichment score": 1.29}
{"Substitution": "L9Y", "normalised enrichment score": 1.01}
{"Substitution": "H1S", "normalised enrichment score": 1.03}
{"Substitution": "P13S", "normalised enrichment score": -0.00289}
{"Substitution": "T12R", "normalised enrichment score": 0.84}
{"Substitution": "R5P", "normalised enrichment score": -0.457}
{"data": "Series 2", "target": "Interferon regulatory factor 5, full length, phosphomimetic (IRF5, Homo sapiens, UniProt Q13568-2, residues 1-514, K96S/S451D/S453D/S456D/S462D)", "method": "protein-binding microarray", "molecule type": "double-stranded DNA, one strand shown", "sample": "in vitro", "tested at": "250 nM", "setting": "60-bp whole probe", "added": "salmon DNA 0.4 mg/ml", "reference": "random background probes", "direction": "higher = stronger binding", "shared flanks, not repeated": "GCCTAGCAC … GTCTTGATTCGCTTGACGCTGCTG"}
{"Strand": "TTAGGTTTCGACTTTCTGTTAGTGCTA", "log fluorescence": "8.21 z-score"}
{"Strand": "ATAGGTTTCGACTATCGGTTAGTGCTA", "log fluorescence": "9.48 z-score"}
{"Strand": "GAAACACTAATTTTTACTTTGTGCTAG", "log fluorescence": "1.76 z-score"}
{"Strand": "TGTTATTAAAATTTCATGAAGTGCTAG", "log fluorescence": "1.12 z-score"}
{"Strand": "CGAGGTCTCGCTATGTTGTCGTGCTAG", "log fluorescence": "-0.0146 z-score"}
{"Strand": "TTAGGTTCCCCTTTCCTTTAGTGCTAG", "log fluorescence": "0.446 z-score"}
{"Strand": "AACGGTTTCGACTTTCGGGACGTGCTA", "log fluorescence": "8.4 z-score"}
{"Strand": "GACGGTGTCGGTTCCGGGACGTGCTAG", "log fluorescence": "0.152 z-score"}
{"Strand": "TCGGTTTCCAAATTGTCTCTGTGCTAG", "log fluorescence": "1.18 z-score"}
{"Strand": "GCCGGTATCCTTATCCTGACGTGCTAG", "log fluorescence": "-0.00716 z-score"}
{"Strand": "TTAGATTCCAGTTTCGATTGGTGCTAG", "log fluorescence": "9.4 z-score"}
{"Strand": "TTAGATCTCAGTTTCGATAAGTGCTAG", "log fluorescence": "8.72 z-score"}
{"Strand": "TCATGTTTCTGTGTCACACTGTGCTAG", "log fluorescence": "3.32 z-score"}
{"Strand": "GACGGTAACGACTATCGGGACGTGCTA", "log fluorescence": "1.55 z-score"}
{"Strand": "GACGGTTTCCTTCTTCTGACGTGCTAG", "log fluorescence": "0.815 z-score"}
{"Strand": "TTTGGACTGGGTATCGGTTAGTGCTAG", "log fluorescence": "4.25 z-score"}
{"Strand": "TTAGGTCTCCTTCTCCGTTAGTGCTAG", "log fluorescence": "-0.0113 z-score"}
{"Strand": "TTAGATCTAAGTTTCGATTAGTGCTAG", "log fluorescence": "8.74 z-score"}
{"Strand": "TTAGGACTGGGACCGGGTTAGTGCTAG", "log fluorescence": "-0.673 z-score"}
{"data": "Series 3", "target": "Histone acetyltransferase KAT6A, both winged helices, GST fusion (KAT6A, Homo sapiens, UniProt Q92794, residues 1-181)", "method": "protein binding microarray", "molecule type": "double-stranded DNA, one strand shown", "sample": "in vitro", "tested at": "not given", "setting": "8-mer, flanks averaged, mean of 2 arrays, mostly near background", "reference": "not given", "direction": "higher = stronger binding", "Residues (chain)": "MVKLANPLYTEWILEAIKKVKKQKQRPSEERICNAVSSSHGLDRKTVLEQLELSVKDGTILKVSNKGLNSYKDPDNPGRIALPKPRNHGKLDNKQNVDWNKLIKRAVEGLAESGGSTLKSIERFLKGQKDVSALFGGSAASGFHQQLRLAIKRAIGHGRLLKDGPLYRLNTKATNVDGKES"}
{"Strand": "CCTTTCAG", "E-score": 0.0333}
{"Strand": "TCACTGGA", "E-score": -0.093}
{"Strand": "ACCGTAGT", "E-score": 0.187}
{"Strand": "ATATTCGA", "E-score": 0.0264}
{"Strand": "GCAATGGA", "E-score": -0.0264}
{"Strand": "AACTGGGG", "E-score": -0.259}
{"Strand": "ATACAGGA", "E-score": 0.0549}
{"Strand": "AATCCCCT", "E-score": -0.328}
{"Strand": "AATCAGAG", "E-score": -0.061}
{"Strand": "CCACAGCC", "E-score": -0.12}
{"Strand": "AGACCAGC", "E-score": -0.0987}
{"Strand": "TCGCGACA", "E-score": 0.221}
{"Strand": "ACTCGGAC", "E-score": 0.0517}
{"Strand": "AGAACACC", "E-score": 0.0704}
{"Strand": "CAAGAGGC", "E-score": -0.115}
{"Strand": "CGCCTGAA", "E-score": 0.0528}
{"Strand": "GTTTTTCA", "E-score": 0.0745}
{"Strand": "ATATGAAG", "E-score": -0.00889}
{"Strand": "CGGCCTCC", "E-score": 0.178}
{"Strand": "AAGCCATC", "E-score": -0.0865}
{"Strand": "CCGCAGTC", "E-score": 0.169}
{"Strand": "CACCCTAA", "E-score": -0.205}
{"Strand": "ACGTCGTA", "E-score": 0.0137}
{"Strand": "ACTATAGG", "E-score": -0.0526}
{"data": "Series 4", "target": "Centromere-binding protein 1, full length, N-terminal tag (CBF1, Saccharomyces cerevisiae, UniProt P17106, residues 1-351)", "method": "protein-binding microarray", "molecule type": "double-stranded DNA, one strand shown", "sample": "in vitro", "tested at": "0.8 µM", "setting": "whole 60-bp probe, no competitor", "direction": "higher = stronger binding", "shared flanks, not repeated": "… GTCTTGATTCGCTTGACGCTGCTG", "UniProt P17106, sequence (whole entry, looked up)": "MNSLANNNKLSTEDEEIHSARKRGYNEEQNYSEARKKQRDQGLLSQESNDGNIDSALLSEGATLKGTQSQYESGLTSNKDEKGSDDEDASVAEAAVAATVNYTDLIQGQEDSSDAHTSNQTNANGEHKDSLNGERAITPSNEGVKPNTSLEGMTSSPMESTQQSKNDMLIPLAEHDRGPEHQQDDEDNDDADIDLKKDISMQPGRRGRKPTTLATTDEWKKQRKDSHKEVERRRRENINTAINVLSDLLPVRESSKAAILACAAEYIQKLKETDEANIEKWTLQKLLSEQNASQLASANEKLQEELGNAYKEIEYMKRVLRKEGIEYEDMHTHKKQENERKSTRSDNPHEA"}
{"Strand": "GAATACGTGGACTAGCGTGTGACTACAAGTTAATAG", "fluorescence intensity": "619 a.u."}
{"Strand": "CTAATAATGGAAGTACACCTGCAGATGCATTTGTTC", "fluorescence intensity": "559 a.u."}
{"Strand": "GAACTTTTTAAATGTCATCACATGATGTTTCTTTAG", "fluorescence intensity": "4660 a.u."}
{"Strand": "CTATTCTCAATTCATCAGCAGATGGGTCTTCGATTC", "fluorescence intensity": "526 a.u."}
{"Strand": "CTAAGCTGTCACGGTCATCACTGCTCCGACACTTTC", "fluorescence intensity": "667 a.u."}
{"Strand": "CTAATCTTTTCTCACCTCACAACGTTTATAGTGTTC", "fluorescence intensity": "536 a.u."}
{"Strand": "GAAACAGCATTAATTATCGTGCCATTACTAAAATAG", "fluorescence intensity": "543 a.u."}
{"Strand": "CTAGAACTTAAACAGCTGATCATTCAGAAACGTTTC", "fluorescence intensity": "878 a.u."}
{"Strand": "TGTACGAAGCTATAGGTGATTACTATAGTAGTTAGG", "fluorescence intensity": "543 a.u."}
{"Strand": "CTATAAAGTACTCATTCCATCACCAAGATTAGTTTC", "fluorescence intensity": "515 a.u."}
{"Strand": "CCTAACTACTATATTCAACTGACATAGCTTCGTACA", "fluorescence intensity": "565 a.u."}
{"data": "Series 5", "target": "ABI1, truncated, D143A, DHFR fusion (Arabidopsis thaliana)", "method": "DHFR PCA, deep sequencing", "sample": "yeast", "setting": "methotrexate growth selection, single substitutions", "added": "(+)-ABA 2500 µM", "reference": "wild-type fitted maximum", "direction": "higher = stronger binding", "starting sequence": "PYL1, truncated, DHFR fusion (Arabidopsis thaliana); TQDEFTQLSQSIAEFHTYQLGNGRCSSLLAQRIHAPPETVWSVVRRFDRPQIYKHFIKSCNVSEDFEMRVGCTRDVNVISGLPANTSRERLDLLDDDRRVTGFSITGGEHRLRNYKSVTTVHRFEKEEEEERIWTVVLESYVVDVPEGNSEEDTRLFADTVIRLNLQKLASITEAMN"}
{"Substitution": "G71N", "relative binding score [%]": 94.5}
{"Substitution": "E130H", "relative binding score [%]": 107}
{"Substitution": "V70M", "relative binding score [%]": 88.2}
{"Substitution": "E147C", "relative binding score [%]": 91.6}
{"Substitution": "N85D", "relative binding score [%]": 96}
{"Substitution": "T39F", "relative binding score [%]": 91.7}
{"Substitution": "A35G", "relative binding score [%]": 90.8}
{"Substitution": "A35L", "relative binding score [%]": 64.6}
{"Substitution": "R163Y", "relative binding score [%]": 64.4}
{"Substitution": "A175L", "relative binding score [%]": 92.8}
{"Substitution": "R90N", "relative binding score [%]": 78}
{"Substitution": "T120E", "relative binding score [%]": 66.9}
{"Substitution": "P83M", "relative binding score [%]": 53.1}
{"Substitution": "V161K", "relative binding score [%]": 8.75}
{"Substitution": "T120A", "relative binding score [%]": 60.8}
{"Substitution": "D3W", "relative binding score [%]": 87.3}
{"Substitution": "R99D", "relative binding score [%]": 57.6}
{"note": "A few entries again (series 2):"}
{"Strand": "GAAACACTAATTTTTACTTTGTGCTAG", "log fluorescence": "1.76 z-score"}
{"Strand": "TGTTATTAAAATTTCATGAAGTGCTAG", "log fluorescence": "1.12 z-score"}
{"Strand": "CGAGGTCTCGCTATGTTGTCGTGCTAG", "log fluorescence": "-0.0146 z-score"}
{"Strand": "TTAGGTTCCCCTTTCCTTTAGTGCTAG", "log fluorescence": "0.446 z-score"}
{"Strand": "AACGGTTTCGACTTTCGGGACGTGCTA", "log fluorescence": "8.4 z-score"}
{"Strand": "GACGGTGTCGGTTCCGGGACGTGCTAG", "log fluorescence": "0.152 z-score"}
{"Strand": "TCGGTTTCCAAATTGTCTCTGTGCTAG", "log fluorescence": "1.18 z-score"}
{"Strand": "GCCGGTATCCTTATCCTGACGTGCTAG", "log fluorescence": "-0.00716 z-score"}
{"Strand": "TTAGATTCCAGTTTCGATTGGTGCTAG", "log fluorescence": "9.4 z-score"}
{"Strand": "TTAGATCTCAGTTTCGATAAGTGCTAG", "log fluorescence": "8.72 z-score"}
{"Strand": "TCATGTTTCTGTGTCACACTGTGCTAG", "log fluorescence": "3.32 z-score"}
{"Strand": "GACGGTAACGACTATCGGGACGTGCTA", "log fluorescence": "1.55 z-score"}
{"Strand": "GACGGTTTCCTTCTTCTGACGTGCTAG", "log fluorescence": "0.815 z-score"}
{"Strand": "TTTGGACTGGGTATCGGTTAGTGCTAG", "log fluorescence": "4.25 z-score"}
